# Measurements gathered from unrelated publications.
# Protocols differ between the studies behind these lines. Values joined by “and” are separate records of one study, mostly repeats; a detail may differ. Numbers after ± are the reported error.
Structure (SMILES),test,test system,conditions,scale,quantity,value
Nc1nc2cc(CC[C@H]3C[C@@H](n4ccc5c(N)ncnc54)[C@H](O)[C@@H]3O)ccc2cc1Br,,"A-427 xenograft, mouse","3.0 mg/kg/day, day 34",,tumour volume,108 ± 23 mm3
C[C@@H]1CN(c2ccnc(C(=O)N[C@H]3C[C@@H]3c3ccccc3)c2)CC[C@@H]1O,,"female heterozygous SLC6A8 P549L mice, cortex","oral, 30 mg/kg once daily",,creatine concentration,1200 µg/mL and 1060 µg/mL and 849 µg/mL
Cc1cc(OCCOCCN(C)C)cc(C(C)C)c1,,"zebrafish larvae, 7 dpf","10 µM, minute 6",,larval motion,10.5 ± 0.4 pixels/frame
CCC(=O)N[C@@H](C)C(=O)OCC(=O)N[C@@H](C)C(=O)O,,water,"pH 4, 65 °C",,chain scission rate constant,0.0074 h⁻¹
CN(CCC#N)c1nc(NCC[C@H]2CCCN2C)nc2sc(-c3ccccc3)cc12,force-pCa relationship,"C57BL/6N mice, skinned left ventricular papillary fibres","30 µM, 30 min, DMSO 5.86",,pCa50,5.63
CN(C)CCOCCOc1ccc(Cl)c(Cl)c1,locomotor activity in dark,"zebrafish larvae, 7 dpf","10 µM, minute 7, dark phase",,larval motion,1.5 ± 0.7 pixels/frame
COC1CN([C@H]2CC[C@H]([C@@]3(C)Oc4c(Cl)cc(C(=O)NCc5c(SC)cc(C)[nH]c5=O)c(C)c4O3)CC2)C1,"RNA-seq, refers to: FAM110C","human, whole blood","dose not given, 24 h",relative to: pretreatment baseline,log2 fold change,2.75
CN(Cc1ccc(/C=C/C(=O)NO)cc1)CC12CC3CC(CC(C3)C1)C2,refers to: H3K9ac,mouse,"24 h, cell-based",,EC50,100 nM
Cc1cn(CC(=O)N(CC(=O)N[C@H]2COC[C@@H]2N(CC(=O)NCCOCCOCC(N)=O)C(=O)Cn2cnc3c(N)ncnc32)[C@H]2COC[C@@H]2NC(=O)CN(C(=O)Cn2cnc3c(N)ncnc32)[C@H]2COC[C@@H]2NC(=O)CN(C(=O)Cn2cnc3c(=O)[nH]c(N)nc32)[C@H]2COC[C@@H]2NC(=O)CN(C(=O)Cn2cc(C)c(=O)[nH]c2=O)[C@H]2COC[C@@H]2NC(=O)CN(C(=O)Cn2cnc3c(=O)[nH]c(N)nc32)[C@H]2COC[C@@H]2NC(=O)CN(C(=O)Cn2cc(C)c(=O)[nH]c2=O)[C@H]2COC[C@@H]2NC(=O)CN(C(=O)Cn2cnc3c(N)ncnc32)[C@H]2COC[C@@H]2NC(=O)CN(C(=O)Cn2cnc3c(=O)[nH]c(N)nc32)[C@H]2COC[C@@H]2N)c(=O)[nH]c1=O,UV melting,DNA duplex with T·C mismatch,"pH 7.2, 1 µM each strand",,Tm,50.7 °C
CCc1cc(OCCOCCN(C)C)ccc1Cl,locomotor activity in dark,"zebrafish larvae, 7 dpf","10 µM, minute 7, dark phase",,larval motion,2 ± 1 pixels/frame
CC(=O)[O-].O.O.O.O.[Mn+2].[O-]c1ccc(Br)cc1C=NCCN1CCOCC1,DPPH radical scavenging,,200 µM,,inhibition,45.1%
Cc1cn(CC(=O)N(CCNC(=O)CN(CCNC(=O)CN(CCNC(=O)CN(CCNC(=O)CN(CCNC(=O)CN(CCNC(=O)CN(CCNC(=O)CN(CCN)C(=O)Cn2cnc3c(=O)[nH]c(N)nc32)C(=O)Cn2cnc3c(N)ncnc32)C(=O)Cn2cc(C)c(=O)[nH]c2=O)C(=O)Cn2cnc3c(=O)[nH]c(N)nc32)C(=O)Cn2cc(C)c(=O)[nH]c2=O)C(=O)Cn2cnc3c(=O)[nH]c(N)nc32)C(=O)Cn2cnc3c(N)ncnc32)CC(=O)NCCN(CC(=O)NCCOCCOCC(N)=O)C(=O)Cn2cnc3c(N)ncnc32)c(=O)[nH]c1=O,UV melting,DNA duplex with T·C mismatch,"pH 7.2, 1 µM each strand",,Tm,22.9 °C
CN1CCC[C@]1(C)/C=C/S(=O)(=O)NC(=O)Nc1c2c(cc3c1CCC3)CCC2,,"human, whole blood ex vivo","50 mg single dose, 6 h, single ascending dose, with: LPS and ATP",,IL-1β inhibition,99.3%
COc1ccc(C(=O)CCc2cc(C(CCc3ccc(O)cc3OC)c3ccc(O)cc3)c(O)cc2OC)cc1 (racemic),,human blood,"0.3 µM, with: A23187",,14-HDHA level,660 ± 170 pg/mL
NC[C@@H](C(=O)Nc1ccc(-c2cn[nH]c2)cc1)c1ccccc1,tonometry,"NZW rabbit, magnetic bead-induced ocular hypertension","ocular, 0.1%, 48 h",,IOP,37.5 mmHg
Cc1cn(CC(=O)N(CC(=O)N[C@H]2CCC[C@@H]2N(CC(=O)N[C@H]2COC[C@@H]2N(CC(=O)N[C@H]2COC[C@@H]2N(CC(=O)N[C@H]2COC[C@@H]2N(CC(=O)NCCOCCOCC(N)=O)C(=O)Cn2cnc3c(N)ncnc32)C(=O)Cn2cc(C)c(=O)[nH]c2=O)C(=O)Cn2cnc3c(N)ncnc32)C(=O)Cn2cnc3c(=O)[nH]c(N)nc32)[C@H]2CCC[C@@H]2NC(=O)CN(C(=O)Cn2cnc3c(=O)[nH]c(N)nc32)[C@H]2CCC[C@@H]2NC(=O)CN(C(=O)Cn2cc(C)c(=O)[nH]c2=O)[C@H]2COC[C@@H]2NC(=O)CN(C(=O)Cn2cnc3c(N)ncnc32)[C@H]2COC[C@@H]2NC(=O)CN(C(=O)Cn2cnc3c(=O)[nH]c(N)nc32)[C@H]2COC[C@@H]2N)c(=O)[nH]c1=O,UV melting,RNA duplex with T·U mismatch,"pH 7.2, 1 µM each strand",,Tm,60.2 °C
CN1CCCNC(=O)c2cccc(c2)C(=O)NCCCN(C)CCCNc2cccc3c2C(=O)c2cccc(c2C3=O)NCCC1,,"SAS xenograft, KSN/Slc nude mice","dose not given, 240 h (day 10), group mean",,tumour volume,297 mm3
COc1cc(O)ccc1CCC(c1ccc(O)cc1)c1cc2c(c(C)c1O)OC(c1ccc(O)cc1)CC2 (mixture of isomers),refers to: docosahexaenoic acid,human whole blood,"30 µM, with: Escherichia coli",,amount,31700 ± 4180 pg/mL blood
Cc1cc(C)cc(NC(=O)CCN2CCCCCC2)c1,,"zebrafish larvae, 7 dpf","10 µM, minute 2",,larval motion,23.8 ± 2 pixels/frame
COc1cnc2cccc(N3CCc4c(cc(Cn5ccnc5)cc4-c4cn(C)nc4C(F)(F)F)C3=O)c2c1,,"BALB/c nude mice, MV4-11 xenograft","intraperitoneal, 75 mg/kg, day 14",,tumour volume,174 mm3 and 156 mm3 and 201 mm3 and 233 mm3 and 136 mm3
CC1(C)CC[C@@]2(CO)C(=C3C=C[C@@H]4[C@@]5(C)CC[C@H](O)[C@@](C)(CO)[C@@H]5CC[C@@]4(C)[C@]3(C)C[C@@H]2O)C1,,"Mus musculus, chronic-plus-binge ethanol, plasma",dose not given,,AST/ALT ratio,1.87 and 2.06 and 2.02 and 1.63 and 1.47
Cc1cc(NC(=O)C(=O)N2C[C@@H](C)CC[C@@H]2c2ccc3scnc3c2)cnc1N,,"mouse, MTAP-deleted CDX and PDX models","120 mg/kg twice daily, 61 models",,models with durable regression,~30%
COc1cccc(OCC(O)CN2CCN(c3ccccc3OC)CC2)c1 (stereo not drawn),,"zebrafish larvae, 7 dpf","10 µM, minute 4",,larval motion,4.3 ± 1.4 pixels/frame
CC(C)C[C@H](NC(=O)CNC(=O)[C@H](CCC(N)=O)NC(=O)[C@H](CC(C)C)NC(=O)[C@H](CC(C)C)NC(=O)[C@H](CCCNC(=N)N)NC(=O)[C@H](CCC(N)=O)NC(=O)[C@H](CC(C)C)NC(=O)[C@H](CCCNC(=N)N)NC(=O)[C@H](C)NC(=O)CNC(=O)[C@H](CCC(=O)O)NC(=O)[C@H](CCCNC(=N)N)NC(=O)[C@H](CC(C)C)NC(=O)[C@H](CCCNC(=N)N)NC(=O)[C@H](CO)NC(=O)[C@H](CC(C)C)NC(=O)[C@H](CCC(=O)O)NC(=O)[C@H](CO)NC(=O)[C@@H](NC(=O)[C@H](Cc1ccccc1)NC(=O)[C@@H](NC(=O)CNC(=O)[C@H](CC(=O)O)NC(=O)C(C)(C)NC(=O)[C@@H](N)Cc1c[nH]cn1)[C@@H](C)O)[C@@H](C)O)C(=O)N[C@@H](CC(C)C)C(=O)N[C@@H](CCC(N)=O)C(=O)NCC(=O)N[C@@H](CC(C)C)C(=O)N[C@H](C(=O)NCC(=O)N[C@@H](CCCCNC(=O)COCCOCCNC(=O)COCCOCCNC(=O)CC[C@H](NC(=O)CCCCCCCCCCCCCCCCC(=O)O)C(=O)O)C(N)=O)C(C)C,,DIO C57BL/6J mice,"dose not given, day 28, 2 h fasted, with: GLP-1R agonist co-treatment",,fasting blood glucose,increased
O=C(CCN1CCN(C/C=C/c2ccccc2)CC1)Nc1ccccc1,locomotor activity in dark,"zebrafish larvae, 7 dpf","10 µM, minute 1, dark phase",,larval motion,2 ± 0.5 pixels/frame
CN(C)C(=O)c1ccnc(N2Cc3cn(Cc4ccc(F)cc4F)nc3C2)n1,,"mouse, hippocampal slice, Schaffer collaterals","dose not given, interstimulus interval 200",relative to: second over first response,paired-pulse ratio,1.45 and 1.95 and 1.24 and 1.42 and 1.37 and 1.34
O=C(CCN1CCN(C/C=C/c2ccccc2)CC1)Nc1ccc2c(c1)CCC2,,"zebrafish larvae, 7 dpf","10 µM, minute 6",,larval motion,16.8 ± 2.1 pixels/frame
O=C(CCCCCCc1ccccc1)c1ncc(-c2ccc(CBr)cn2)o1,,"mouse, chronic constriction injury, ipsilateral paw","i.p., 30 mg/kg, 1, 3, 6 h",,cold allodynia,decreased
OC(COCC1COc2ccccc2O1)CN1CCN(c2ccccc2)CC1 (stereo not drawn),,"zebrafish larvae, 7 dpf","10 µM, minute 2",,larval motion,4.2 ± 1.5 pixels/frame
Cc1cnc2nc1Nc1cccc(c1)COC/C=C/COCc1cc(ccc1OCCN1CCOCC1)N2,,"BALB/c mice rhEPO-induced polycythemia, spleen",100 mg/kg,,CD71/Ter119 cells,15.1% and 14.6% and 13.6% and 13.4% and 11.5% and 11.6%

# For quick reference, copied from above:
Structure (SMILES),test,test system,conditions,scale,quantity,value
CC1(C)CC[C@@]2(CO)C(=C3C=C[C@@H]4[C@@]5(C)CC[C@H](O)[C@@](C)(CO)[C@@H]5CC[C@@]4(C)[C@]3(C)C[C@@H]2O)C1,,"Mus musculus, chronic-plus-binge ethanol, plasma",dose not given,,AST/ALT ratio,1.87 and 2.06 and 2.02 and 1.63 and 1.47
Cc1cc(NC(=O)C(=O)N2C[C@@H](C)CC[C@@H]2c2ccc3scnc3c2)cnc1N,,"mouse, MTAP-deleted CDX and PDX models","120 mg/kg twice daily, 61 models",,models with durable regression,~30%
COc1cccc(OCC(O)CN2CCN(c3ccccc3OC)CC2)c1 (stereo not drawn),,"zebrafish larvae, 7 dpf","10 µM, minute 4",,larval motion,4.3 ± 1.4 pixels/frame
